Measured values of several laboratories.
Every numbered part comes from another study and shows a few of its results, in no order.
Chain of UniProt P53667 (whole entry, looked up): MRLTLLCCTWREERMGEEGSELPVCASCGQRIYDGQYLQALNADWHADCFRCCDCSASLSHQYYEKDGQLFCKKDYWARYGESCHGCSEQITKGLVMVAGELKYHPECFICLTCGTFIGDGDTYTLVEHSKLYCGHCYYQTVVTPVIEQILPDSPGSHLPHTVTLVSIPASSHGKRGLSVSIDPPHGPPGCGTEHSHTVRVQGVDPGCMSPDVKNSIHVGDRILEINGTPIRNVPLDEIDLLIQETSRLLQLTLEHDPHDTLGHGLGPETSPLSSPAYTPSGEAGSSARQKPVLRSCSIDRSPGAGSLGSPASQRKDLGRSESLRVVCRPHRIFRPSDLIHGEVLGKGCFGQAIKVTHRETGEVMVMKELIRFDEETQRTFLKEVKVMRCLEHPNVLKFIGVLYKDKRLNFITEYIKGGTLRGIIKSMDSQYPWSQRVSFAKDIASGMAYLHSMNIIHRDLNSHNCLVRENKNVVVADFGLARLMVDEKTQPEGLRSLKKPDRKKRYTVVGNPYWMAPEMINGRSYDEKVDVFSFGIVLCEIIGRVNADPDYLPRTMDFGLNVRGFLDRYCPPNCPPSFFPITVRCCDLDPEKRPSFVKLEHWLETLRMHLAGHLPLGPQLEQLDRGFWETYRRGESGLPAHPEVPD
Chain of UniProt Q86Y34 (whole entry, looked up): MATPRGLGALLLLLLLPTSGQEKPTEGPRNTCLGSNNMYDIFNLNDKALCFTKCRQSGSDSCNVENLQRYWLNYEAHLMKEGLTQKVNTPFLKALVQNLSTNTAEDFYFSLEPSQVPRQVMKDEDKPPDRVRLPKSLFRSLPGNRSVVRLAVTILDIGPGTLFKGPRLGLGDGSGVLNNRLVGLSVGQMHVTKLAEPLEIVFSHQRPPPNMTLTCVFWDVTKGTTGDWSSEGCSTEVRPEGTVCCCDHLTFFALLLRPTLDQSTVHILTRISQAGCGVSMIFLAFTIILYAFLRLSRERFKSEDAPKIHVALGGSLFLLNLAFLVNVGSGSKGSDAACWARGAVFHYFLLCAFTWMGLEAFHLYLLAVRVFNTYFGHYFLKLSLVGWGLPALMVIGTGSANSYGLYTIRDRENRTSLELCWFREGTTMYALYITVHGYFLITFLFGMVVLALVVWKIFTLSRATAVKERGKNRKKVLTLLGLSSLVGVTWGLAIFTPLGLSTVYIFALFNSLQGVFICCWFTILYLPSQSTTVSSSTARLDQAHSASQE
Chain of UniProt Q14004 (whole entry, looked up): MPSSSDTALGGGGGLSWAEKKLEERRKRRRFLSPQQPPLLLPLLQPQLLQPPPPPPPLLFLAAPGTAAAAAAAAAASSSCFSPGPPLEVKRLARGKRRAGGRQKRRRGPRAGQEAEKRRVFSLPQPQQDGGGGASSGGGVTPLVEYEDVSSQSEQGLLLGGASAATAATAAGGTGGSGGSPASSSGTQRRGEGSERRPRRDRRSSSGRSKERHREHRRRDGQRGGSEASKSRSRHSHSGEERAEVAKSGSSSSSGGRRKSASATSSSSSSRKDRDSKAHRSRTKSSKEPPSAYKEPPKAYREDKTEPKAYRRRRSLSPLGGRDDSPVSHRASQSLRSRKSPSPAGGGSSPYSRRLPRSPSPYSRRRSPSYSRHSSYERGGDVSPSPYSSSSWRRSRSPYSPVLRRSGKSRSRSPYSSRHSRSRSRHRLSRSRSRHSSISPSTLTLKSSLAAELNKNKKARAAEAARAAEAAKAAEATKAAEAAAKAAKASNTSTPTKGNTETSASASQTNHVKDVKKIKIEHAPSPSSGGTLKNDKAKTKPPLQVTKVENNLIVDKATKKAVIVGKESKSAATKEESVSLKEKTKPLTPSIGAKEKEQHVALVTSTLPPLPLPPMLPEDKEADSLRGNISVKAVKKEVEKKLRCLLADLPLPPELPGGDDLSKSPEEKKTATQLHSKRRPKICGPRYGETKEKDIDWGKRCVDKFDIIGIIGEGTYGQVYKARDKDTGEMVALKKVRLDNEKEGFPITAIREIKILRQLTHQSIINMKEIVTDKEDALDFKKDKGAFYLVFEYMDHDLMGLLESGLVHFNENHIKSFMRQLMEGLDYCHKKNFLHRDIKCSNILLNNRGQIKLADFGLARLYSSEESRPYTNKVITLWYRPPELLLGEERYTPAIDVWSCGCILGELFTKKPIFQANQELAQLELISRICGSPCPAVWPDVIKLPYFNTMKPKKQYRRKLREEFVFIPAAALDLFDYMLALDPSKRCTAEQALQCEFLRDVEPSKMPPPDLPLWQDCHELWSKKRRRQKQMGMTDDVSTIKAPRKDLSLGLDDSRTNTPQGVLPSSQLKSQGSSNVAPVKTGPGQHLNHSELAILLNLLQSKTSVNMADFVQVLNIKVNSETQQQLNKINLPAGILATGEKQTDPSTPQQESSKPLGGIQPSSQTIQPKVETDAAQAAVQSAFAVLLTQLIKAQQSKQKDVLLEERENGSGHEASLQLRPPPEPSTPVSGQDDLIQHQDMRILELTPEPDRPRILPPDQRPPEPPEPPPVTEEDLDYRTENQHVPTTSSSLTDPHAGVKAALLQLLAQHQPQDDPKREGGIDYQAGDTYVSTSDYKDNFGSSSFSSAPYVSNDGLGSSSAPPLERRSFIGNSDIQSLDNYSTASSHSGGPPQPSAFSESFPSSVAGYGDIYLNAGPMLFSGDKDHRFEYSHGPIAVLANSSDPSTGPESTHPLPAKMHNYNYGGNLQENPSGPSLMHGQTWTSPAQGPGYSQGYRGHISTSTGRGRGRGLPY
Chain of UniProt P35626 (whole entry, looked up): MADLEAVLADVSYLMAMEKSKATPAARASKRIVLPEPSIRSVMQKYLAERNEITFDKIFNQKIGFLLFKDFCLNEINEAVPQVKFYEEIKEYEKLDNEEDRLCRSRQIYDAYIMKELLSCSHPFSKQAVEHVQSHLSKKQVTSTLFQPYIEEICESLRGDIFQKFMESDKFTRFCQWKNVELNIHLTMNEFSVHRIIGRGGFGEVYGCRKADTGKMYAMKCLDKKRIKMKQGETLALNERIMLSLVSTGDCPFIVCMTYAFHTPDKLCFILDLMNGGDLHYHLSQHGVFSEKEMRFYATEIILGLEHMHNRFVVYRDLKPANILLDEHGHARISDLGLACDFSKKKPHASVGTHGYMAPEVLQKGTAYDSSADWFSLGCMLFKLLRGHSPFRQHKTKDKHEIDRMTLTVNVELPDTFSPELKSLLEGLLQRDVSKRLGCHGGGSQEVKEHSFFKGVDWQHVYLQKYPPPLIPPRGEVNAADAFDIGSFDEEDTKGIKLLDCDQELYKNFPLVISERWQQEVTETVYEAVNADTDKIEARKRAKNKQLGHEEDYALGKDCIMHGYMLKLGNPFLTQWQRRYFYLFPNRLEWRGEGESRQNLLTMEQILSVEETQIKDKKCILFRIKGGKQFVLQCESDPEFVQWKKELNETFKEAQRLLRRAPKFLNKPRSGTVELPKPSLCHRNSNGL
Chain of UniProt P43088 (whole entry, looked up): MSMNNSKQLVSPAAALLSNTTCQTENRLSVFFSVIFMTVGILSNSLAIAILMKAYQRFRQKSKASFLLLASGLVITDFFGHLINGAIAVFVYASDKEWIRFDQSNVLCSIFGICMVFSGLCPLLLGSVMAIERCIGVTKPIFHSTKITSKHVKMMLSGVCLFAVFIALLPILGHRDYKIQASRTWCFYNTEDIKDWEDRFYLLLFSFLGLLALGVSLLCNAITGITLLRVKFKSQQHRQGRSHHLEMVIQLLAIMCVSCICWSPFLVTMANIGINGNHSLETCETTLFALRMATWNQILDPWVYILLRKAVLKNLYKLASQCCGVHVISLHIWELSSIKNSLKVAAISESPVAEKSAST
Chain of UniProt P35590 (whole entry, looked up): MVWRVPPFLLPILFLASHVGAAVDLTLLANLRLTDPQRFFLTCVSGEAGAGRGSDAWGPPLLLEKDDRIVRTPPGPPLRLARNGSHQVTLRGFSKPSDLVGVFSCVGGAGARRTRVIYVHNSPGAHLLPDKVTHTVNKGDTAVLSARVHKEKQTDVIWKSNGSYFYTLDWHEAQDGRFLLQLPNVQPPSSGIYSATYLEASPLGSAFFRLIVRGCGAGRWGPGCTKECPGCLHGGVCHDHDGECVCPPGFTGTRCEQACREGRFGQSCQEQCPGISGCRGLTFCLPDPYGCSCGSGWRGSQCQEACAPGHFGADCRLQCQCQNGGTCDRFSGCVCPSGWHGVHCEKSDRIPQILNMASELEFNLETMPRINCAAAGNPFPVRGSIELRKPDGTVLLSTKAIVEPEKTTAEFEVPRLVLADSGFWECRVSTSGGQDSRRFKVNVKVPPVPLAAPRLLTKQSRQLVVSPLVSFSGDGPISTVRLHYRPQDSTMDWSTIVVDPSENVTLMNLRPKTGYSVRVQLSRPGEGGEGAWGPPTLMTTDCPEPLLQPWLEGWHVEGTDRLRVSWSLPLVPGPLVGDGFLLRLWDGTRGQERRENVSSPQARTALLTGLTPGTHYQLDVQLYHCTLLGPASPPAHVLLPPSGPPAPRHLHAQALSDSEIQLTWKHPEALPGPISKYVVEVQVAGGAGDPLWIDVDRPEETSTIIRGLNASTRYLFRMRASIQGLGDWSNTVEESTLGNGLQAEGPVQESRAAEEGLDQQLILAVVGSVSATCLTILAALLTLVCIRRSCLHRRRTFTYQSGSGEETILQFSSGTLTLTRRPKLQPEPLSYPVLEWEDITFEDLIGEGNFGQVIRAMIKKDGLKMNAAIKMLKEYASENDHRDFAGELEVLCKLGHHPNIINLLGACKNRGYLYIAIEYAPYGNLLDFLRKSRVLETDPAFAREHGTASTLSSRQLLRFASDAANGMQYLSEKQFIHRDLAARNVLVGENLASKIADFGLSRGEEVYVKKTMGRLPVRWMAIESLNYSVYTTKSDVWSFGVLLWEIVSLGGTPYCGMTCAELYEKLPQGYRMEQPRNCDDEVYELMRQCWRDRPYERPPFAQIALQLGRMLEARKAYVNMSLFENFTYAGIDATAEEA

Block 1
SMILES: NC(N)=NC(=O)c1nc(Cl)c(N2CCCCCC2)nc1N
Effect on: β-arrestin recruitment
Action: agonist
Technique: PRESTO-Tango
Concentration: 10 µM
Reference: untreated
target | fold over basal
C-X-C chemokine receptor type 2 (CXCR2, Homo sapiens, UniProt P25025) | 1.15
Neuromedin-K receptor (TACR3, Homo sapiens, UniProt P29371) | 0.99 fold
Adhesion G protein-coupled receptor E5 (Homo sapiens, UniProt P48960) | 0.89
ADGRG3 (Homo sapiens, UniProt Q86Y34) | 0.91
Succinate receptor 1 (SUCNR1, Homo sapiens, UniProt Q9BXA5) | 1.21 fold
Prostaglandin F2-alpha receptor (PTGFR, Homo sapiens, UniProt P43088) | 0.56
Orexin/Hypocretin receptor type 1 (HCRTR1, Homo sapiens, UniProt O43613) | 1.93 fold
Endothelin-1 receptor (EDNRA, Homo sapiens, UniProt P25101) | 0.74
Adhesion G protein-coupled receptor F4 (ADGRF4, Homo sapiens, UniProt Q8IZF3) | 1.01

Block 2
Target: Diamine acetyltransferase 1 (Homo sapiens, UniProt P21673)
Action: inhibitor
Concentration: 10 µM
Reference: control
Construct (P21673 1-171): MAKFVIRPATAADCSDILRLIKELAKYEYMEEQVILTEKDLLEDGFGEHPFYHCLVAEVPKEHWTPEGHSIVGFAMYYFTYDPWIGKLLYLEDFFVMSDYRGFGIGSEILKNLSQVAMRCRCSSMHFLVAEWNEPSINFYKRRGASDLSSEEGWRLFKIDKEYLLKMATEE
Compound | remaining activity [%]
O=C(O)[C@H](O)c1ccccc1 | 110
C=CC(C)(O)CCC=C(C)CCC=C(C)C (mixture of isomers) | 90.1
O=C(O)/C=C/c1cccc(O)c1 | 100
CC(C)CCC[C@@H](C)[C@H]1CC[C@H]2C3=CC[C@H]4C[C@@H](O)CC[C@]4(C)[C@H]3CC[C@]12C | 104
CC(=O)c1ccc(C)cc1 | 89.8
C[C@H](CCC(=O)O)[C@H]1CC(=O)[C@@]2(C)C3=C(C(=O)C[C@]12C)[C@@]1(C)CCC(=O)C(C)(C)[C@@H]1C[C@@H]3O | 104
C[C@H]1[C@H](C)CC[C@]2(C(=O)O)CC[C@]3(C)C(=CC[C@@H]4[C@@]5(C)CC[C@@H](O)C(C)(C)[C@@H]5CC[C@]43C)[C@H]12 | 112

Block 3
SMILES: CCS(=O)(=O)c1cc2cc(C[C@@](O)(CC(C)(C)c3ccc(F)cc3C(N)=O)C(F)(F)F)[nH]c2cn1
Concentration: 1 µM
target | assay | remaining binding [%]
LIM domain kinase 1 (LIMK1, Homo sapiens, UniProt P53667) | cell-free assay, competition with immobilised ligand | 100
Testis-specific serine/threonine-protein kinase 1 (TSSK1B, Homo sapiens, UniProt Q9BXA7) | cell-free assay, competition with immobilised ligand | 96
Mast/stem cell growth factor receptor Kit (KIT, Homo sapiens, UniProt P10721) | cell-free assay, competition with immobilised ligand | 100
G protein-coupled receptor kinase 3 (GRK3, Homo sapiens, UniProt P35626) | cell-free assay, competition with immobilised ligand | 73
Activin receptor type-2A (ACVR2A, Homo sapiens, UniProt P27037) | cell-free assay, competition with immobilised ligand | 94
Tyrosine-protein kinase ABL1, phosphorylated (ABL1, Homo sapiens, UniProt P00519, Q252H) | cell-free assay, competition with immobilised ligand | 92
Serine/threonine-protein kinase pim-3 (PIM3, Homo sapiens, UniProt Q86V86) | cell-free assay, competition with immobilised ligand | 100
Serine/threonine-protein kinase Nek4 (NEK4, Homo sapiens, UniProt P51957) | cell-free assay, competition with immobilised ligand | 91
Serine/threonine-protein kinase Chk1 (CHEK1, Homo sapiens, UniProt O14757) | cell-free assay, competition with immobilised ligand | 100
Serine/threonine-protein kinase 24 (STK24, Homo sapiens, UniProt Q9Y6E0) | cell-free assay, competition with immobilised ligand | 0
Glycogen synthase kinase-3 beta (GSK3B, Homo sapiens, UniProt P49841) | cell-free assay, competition with immobilised ligand | 90
Ankyrin repeat and protein kinase domain-containing protein 1 (ANKK1, Homo sapiens, UniProt Q8NFD2) | cell-free assay, competition with immobilised ligand | 70
Cyclin-dependent kinase 13 (CDK13, Homo sapiens, UniProt Q14004) | cell-free assay, competition with immobilised ligand | 91
Transient receptor potential cation channel subfamily M member 6 (TRPM6, Homo sapiens, UniProt Q9BX84) | cell-free assay, competition with immobilised ligand | 72
Tyrosine-protein kinase receptor Tie-1 (TIE1, Homo sapiens, UniProt P35590) | cell-free assay, competition with immobilised ligand | 66
Serine/threonine-protein kinase MRCK beta (CDC42BPB, Homo sapiens, UniProt Q9Y5S2) | cell-free assay, competition with immobilised ligand | 99
Serine/threonine-protein kinase MRCK gamma (CDC42BPG, Homo sapiens, UniProt Q6DT37) | competition binding | 96
Mitogen-activated protein kinase kinase kinase 11 (MAP3K11, Homo sapiens, UniProt Q16584) | cell-free assay, competition with immobilised ligand | 92
Serine/threonine-protein kinase STK11 (STK11, Homo sapiens, UniProt Q15831) | cell-free assay, competition with immobilised ligand | 100
Receptor-type tyrosine-protein kinase FLT3 (FLT3, Homo sapiens, UniProt P36888, D835H) | cell-free assay, competition with immobilised ligand | 100
Receptor-type tyrosine-protein kinase FLT3 (FLT3, Homo sapiens, UniProt P36888, R834Q) | cell-free assay, competition with immobilised ligand | 78
Tyrosine-protein kinase ABL1, phosphorylated (ABL1, Homo sapiens, UniProt P00519, M351T) | cell-free assay, competition with immobilised ligand | 96
Tyrosine-protein kinase ABL1, phosphorylated (ABL1, Homo sapiens, UniProt P00519, E255K) | binding, competition with immobilised ligand | 90
Serine/threonine-protein kinase RIO3 (RIOK3, Homo sapiens, UniProt O14730) | cell-free assay, competition with immobilised ligand | 74

Block 4
Host: mouse
Sample: microsomes or S9
Concentration: 2 µM
Time: 0.5 h
SMILES | remaining compound [%]
O=C1c2ccccc2CN1C(c1cccc(F)c1)c1nc2cncnc2[nH]1 (centres unmarked) | 99.7
Cc1ccc(S(=O)(=O)n2cc(Br)c3c(N4CCC(N5CCOCC5)CC4)ncnc32)cc1 | 0.54
CCOC(=O)c1c(NC(=O)CCC(=O)N(CC)CC)sc2c1CC(C)(C)OC2 | 0.845
O=C(CN(CCc1ccccc1)C(=O)CN1C(=O)COc2ccccc21)NCC1CCCO1 (centres unmarked) | 5.34
COc1cc(/C=C/C(C)=O)ccc1O | 28.9
Cc1cc(-n2c(C)cc(C(=O)CSc3[nH]c(=O)cc(C(F)(F)F)c3C#N)c2C)no1 | 8.39
CC(C)n1ncc2c(=O)n(Cc3ncc(Cl)cc3Cl)cnc21 | 2.54
Nc1ccc(C(=O)OCc2nc3c(ccc4ccccc43)[nH]2)cc1 | 1.76
CC1CCCC(C)C1NC(=O)Nc1cc(C#N)cn1C(C)(C)C (centres unmarked) | 2.57
Cc1c(O)ccc2c(CSc3n[nH]c4nc5ccccc5n34)cc(=O)oc12 | 2.01

A few entries again (block 1):
target | fold over basal
C-X-C chemokine receptor type 2 (CXCR2, Homo sapiens, UniProt P25025) | 1.15
Neuromedin-K receptor (TACR3, Homo sapiens, UniProt P29371) | 0.99 fold
Adhesion G protein-coupled receptor E5 (Homo sapiens, UniProt P48960) | 0.89
ADGRG3 (Homo sapiens, UniProt Q86Y34) | 0.91
Succinate receptor 1 (SUCNR1, Homo sapiens, UniProt Q9BXA5) | 1.21 fold
Prostaglandin F2-alpha receptor (PTGFR, Homo sapiens, UniProt P43088) | 0.56
Orexin/Hypocretin receptor type 1 (HCRTR1, Homo sapiens, UniProt O43613) | 1.93 fold
Endothelin-1 receptor (EDNRA, Homo sapiens, UniProt P25101) | 0.74
